Experimental data from different studies.
Parts stem from different laboratories: compare values within a part only.

Block 1 — method: protein-binding microarray; form: double-stranded DNA, one strand shown; medium: in vitro; concentration: not given; direction: higher = stronger binding
Target: Myc proto-oncogene protein, bHLH-zipper, MAX partner unstated (MYC, Homo sapiens, UniProt P01106, residues 368-449)
UniProt P01106, sequence (368-449, looked up): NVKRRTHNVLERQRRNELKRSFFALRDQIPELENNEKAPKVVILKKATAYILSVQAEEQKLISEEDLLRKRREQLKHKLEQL
Setting: k-mer, scored over probes, only values ≥0.25
Strand | E-score
CGTGTCAC | 0.403
ACACGAGC | 0.322
TCATGTCA | 0.253
GCACGTGA | 0.479
CATGACAA | 0.271
GCACGAGC | 0.319
ACGGGGTA | 0.255
CATGGAAC | 0.287
ACGAGCAC | 0.291
CACGCAGG | 0.34
CGGTGTGC | 0.275
ACGGGCCA | 0.252
AGACGCAT | 0.274
CCATGCAC | 0.379
GACGTGGC | 0.339
GCGTGTCA | 0.406

Block 2 — method: RNA Bind-n-Seq; form: RNA; medium: in vitro; concentration: 365 nM; baseline: no-protein control; direction: higher = stronger binding
Target: RNA binding protein fox-1 homolog 2, RRM domain, GST-SBP tag (RBFOX2, Homo sapiens, UniProt O43251-10, residues 100-194)
Setting: natural RNA segment, single round, ends assumed
All sequences stand within: GGGAGUUCUACAGUCCGACGAUC … UGGAAUUCUCGGGUGCCAA
Target sequence (chain): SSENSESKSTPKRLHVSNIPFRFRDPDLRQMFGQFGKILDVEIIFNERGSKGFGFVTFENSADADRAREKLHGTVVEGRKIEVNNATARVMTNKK
Strand | RBNS enrichment (R)
GUGCUGUUUUAAUUACCUAACGUCUGUGUAACUGCUGAUUUGAGUAGUGAUUAGCAUUUAGAUAAUGUAACAGGAUUUUAGAGAGCACUUUGAAAGAUAACAUUUUAUUA | 0.337
AGGUCUUCCAUGUUUGAGGAAAUGUCUUGCACUAUUGCAUAUAUUUUGUGGACACAGAUUUUUGUAGUUUCCAUUUUGGAAGGCUAAAGUGUUUUGUUUGUUUGAAACAG | 1.37
CACCCCAAAAGGAGAGAAAAGGAAGAAAACAUUUAUAAAAAGCGACAGCUACCCCCAUAUUCAAAAAUAGUUCUUUUCCCUGUAGGGAAACAGGUAGCUCUCCAUAAGGA | 0.523
UGCCAAGAGAUGUGAUAUAUAAGUGUAUAUAUUGUGCUGUGUUUGGGACCCUCCUCAUACAGCUCGUGCGGAUCUGCAGUGUGUUCUGACUCUAAUGUGACUGUAUAUAC | 0.483
UCAUCCCUAGUAUCUGCUCUGCAAACCAUCUAGACAGAAGCAGUAGGCCUGGCUUUCUCAACUGCCUGAGGCUGUUGCGCAGCAUUGCUGCCUCAUGUGACUGCCGUGCC | 0.259
GUUUUAGAAAUGGCACAUAGGCUUCUAUUACCUGUUAGGUGGAGAUUUUGUAUGUAAAUGUGUUAGCACUGAUAGUCCUUUUCCAGUGUUUUAUUGGGAAAUUAAAUAGU | 1.56
CUUGUUUGCUACAAGCCCUACCCUCCACUCUUUCAUUCCUUGAAAGCAGUUUGCCUGGUCAGUCAGCUUUUGGGGGUCCAUCAAAGGAGGUUGCUGACCUGACCGUGAGU | 0.408
CAUUUGAAUGACCCUCAGCAAUGUGCCUCCCUGCCCUCAAAUUCCCAGUUGAUAACAGUGUUUGAUUAAAUUUCCACUCAAGCCAAACAUGGUUACUAAGAAGAGAAAAA | 0.469
ACACACACACACACAUCUUGUACCCCAGACCUCUGGGUAUAAUUUUCAUAAUUGGUGCAGAAAGAAGAAAUGAUCUGAAGAUGUGUUAAAUGGAUUGCAGGGGAAGGAAG | 0.644
UUAUAUAUCACCCUUUAGAUCUUGAUUUCUUGGUCAUUUCUCAACCUGAGGUGCAUAGCAUAUUCCCACAUUCCAUUUGGUAGCAAUAUGCGGUCUGAAUGCAUGCAUUC | 2.61
UUUCUAUGACUGCAGGGUUUUUUUAUACAGUGUUUUUGGAUUCAUAAUAAAUUGAUGGUUUUUUAUGACAUGCUUUUCUGCCCCACCAUGUUGAUUUGUGACCAGUGUCC | 0.854
CCCAGGAGUUCAAGACCAGCCUGAGAAACAUAGUGAGACCCUGUCUCUAAAAAAAUAAAAACUUAGCAAGGCAUGGUGGUGCACACCUGUAGUCCUAGCUACUCAGGAGG | 0.294

Block 3 — method: universal PBM; form: double-stranded DNA, one strand shown; medium: in vitro; concentration: 600 nM; direction: higher = stronger binding
Target: Sal-like protein 4, full length isoform A (SALL4, Homo sapiens, UniProt Q9UJQ4, residues 1-1053)
UniProt Q9UJQ4, sequence (whole entry, looked up): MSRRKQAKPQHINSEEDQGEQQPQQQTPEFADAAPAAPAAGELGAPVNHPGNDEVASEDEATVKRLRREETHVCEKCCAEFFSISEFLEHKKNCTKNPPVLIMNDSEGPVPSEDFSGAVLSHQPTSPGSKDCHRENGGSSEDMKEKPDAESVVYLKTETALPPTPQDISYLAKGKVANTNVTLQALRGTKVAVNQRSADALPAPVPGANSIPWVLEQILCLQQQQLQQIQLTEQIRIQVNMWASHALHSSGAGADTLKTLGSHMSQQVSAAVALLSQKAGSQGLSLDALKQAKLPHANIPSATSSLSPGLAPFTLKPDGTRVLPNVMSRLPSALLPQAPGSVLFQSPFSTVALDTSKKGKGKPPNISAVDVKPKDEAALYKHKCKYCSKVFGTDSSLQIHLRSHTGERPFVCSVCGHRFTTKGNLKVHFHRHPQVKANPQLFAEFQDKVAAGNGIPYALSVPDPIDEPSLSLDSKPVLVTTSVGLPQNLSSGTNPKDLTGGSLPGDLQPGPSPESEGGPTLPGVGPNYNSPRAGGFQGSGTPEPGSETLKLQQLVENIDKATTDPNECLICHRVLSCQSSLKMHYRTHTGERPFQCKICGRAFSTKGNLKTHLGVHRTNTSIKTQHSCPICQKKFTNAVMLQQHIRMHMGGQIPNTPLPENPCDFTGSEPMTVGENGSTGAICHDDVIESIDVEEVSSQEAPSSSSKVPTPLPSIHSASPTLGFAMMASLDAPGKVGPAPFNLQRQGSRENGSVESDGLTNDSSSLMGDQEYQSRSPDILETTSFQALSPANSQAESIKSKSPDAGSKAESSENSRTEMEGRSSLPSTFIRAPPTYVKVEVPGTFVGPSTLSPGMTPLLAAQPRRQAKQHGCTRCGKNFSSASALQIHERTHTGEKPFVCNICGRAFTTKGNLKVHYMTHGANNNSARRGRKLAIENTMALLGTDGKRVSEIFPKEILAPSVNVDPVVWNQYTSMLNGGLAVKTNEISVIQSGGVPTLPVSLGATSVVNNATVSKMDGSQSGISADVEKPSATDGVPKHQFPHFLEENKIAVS
Setting: 8-mer, flanks averaged, mean of replicates
Strand | E-score
ACAGGCTG | -0.132
AACTTGAG | -0.127
AACTTGAA | 0.231
GGACCCTA | -0.311
ACCATTAA | 0.271
AGAAGTCA | 0.108
AAGGGAGG | -0.152
GAACGATC | -0.175
AACGACCC | -0.254
CACTAGAG | -0.00983
CTACAGAG | 0.0727
GGGTTTCA | -0.0474
GACAGTGA | -0.0636
GACGACAA | 0.043
GTCGTCGA | -0.191
GAAGTGTA | 0.0178
CGTCTCAA | 0.0865
AGCGGGGA | -0.0623
CAAGATTC | 0.125
CGACCAAG | -0.227
ACGTGTAT | 0.1

Block 4 — method: protein-binding microarray; form: double-stranded DNA, one strand shown; medium: in vitro; concentration: 2540 nM top; setting: 60-bp whole probe; added: salmon DNA 0.4 mg/ml; baseline: random background probes; direction: higher = stronger binding; all sequences stand within: GCCTAGCAC … GTCTTGATTCGCTTGACGCTGCTG
Target: Interferon regulatory factor 3, full length, phosphomimetic (IRF3, Homo sapiens, UniProt Q14653, residues 1-427, S386D/S396D/S398D/S402D/T404D/S405D)
UniProt Q14653, sequence (whole entry, unmodified, looked up): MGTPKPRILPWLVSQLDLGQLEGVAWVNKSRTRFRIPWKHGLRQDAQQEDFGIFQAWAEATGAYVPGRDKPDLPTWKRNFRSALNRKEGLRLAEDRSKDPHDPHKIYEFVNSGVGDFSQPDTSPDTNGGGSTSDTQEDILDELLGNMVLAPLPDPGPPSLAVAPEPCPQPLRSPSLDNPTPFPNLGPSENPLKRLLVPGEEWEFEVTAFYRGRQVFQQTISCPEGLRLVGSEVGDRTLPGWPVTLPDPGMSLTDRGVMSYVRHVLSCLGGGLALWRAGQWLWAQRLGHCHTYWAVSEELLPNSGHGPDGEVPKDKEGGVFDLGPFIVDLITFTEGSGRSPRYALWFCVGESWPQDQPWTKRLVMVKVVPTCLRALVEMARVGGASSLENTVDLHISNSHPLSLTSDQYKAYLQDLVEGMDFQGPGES
Strand | fitted relative affinity [z-score]
TTAGATTTCAGTCTCGATTAGTGCTAG | 2.36
TTGAGTTTTCCTTCATGTGCGTGCTAG | 2.23
TCAACTTTCCAAAACATACTGTGCTAG | 2.91
TCAATTTTTTTTATCAAACTGTGCTAG | 0.491
GACGATTTCGAGACTGGAGACGTGCTA | 1.42
GACGGTCTCGGTATTGGGACGTGCTAG | 0.969
GACGGTTTCGGTATCTGGACGTGCTAG | 7.65
GACGGACTGTGTATCGGGACGTGCTAG | 0.136
TCAAATTTTTTTTCTAAACTGTGCTAG | 0.549
CACGGTTTCGGTCTCGGGACGTGCTAG | 7.75
TTAGGACTGGGGCTTCGGTTAGTGCTA | -1.23
GACGATTTCAGTCTCTAGACGTGCTAG | 2.53
TTAGGACCGCTTATCCTTTAGTGCTAG | 0.314
CGATTACAGCTAGGTAGTGGGTGCTAG | 1.84
CTAGGACTGGGTATCGGTTAGTGCTAG | 0.441
TTAGAATTGGGGACTGGATTAGTGCTA | -0.629
TAAGGACTGCTTATCCTTTAGTGCTAG | 0.04
TACTCTCCAGGGTTTCTCTTTGTGCTA | 0.93
GACGAACGGAGACTGGAGACGTGCTAG | -0.241
TTAGATTTAGGGTATCGATTAGTGCTA | 0.000838
CGAGGTCTCGCTATGTTGTCGTGCTAG | -0.558
TCAGGTATCCTTATCCTTTAGTGCTAG | 5.52
TTAGGTTTCGACTATCGGTTAGTGCTA | 2.43
GGCCTCTCTGTTTTCCTGTTGTGCTAG | 0.34
CTAATTTTGAGACTCATGGGGTGCTAG | 0.375

Block 5 — method: protein binding microarray; form: double-stranded DNA, one strand shown; medium: in vitro; concentration: not given; baseline: not given; direction: higher = stronger binding
Target: Histone acetyltransferase KAT6A, winged helix 2, GST fusion (KAT6A, Homo sapiens, UniProt Q92794, residues 85-181)
Setting: 8-mer, flanks averaged, mean of 2 arrays, mostly near background
Residues (chain): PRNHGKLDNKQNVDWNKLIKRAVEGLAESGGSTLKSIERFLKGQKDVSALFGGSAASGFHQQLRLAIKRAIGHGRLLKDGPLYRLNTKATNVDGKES
Strand | E-score
CTGAAGCA | 0.1
CGCAGCGC | 0.242
CCTCAAGG | 0.0556
AAGACTTG | -0.169
CTACCTAA | -0.0227
CCTCAAGC | 0.0653
AATACTAC | -0.0328
TCAGATCA | 0.0596
ATGGCGGG | 0.164
ACGGGATC | 0.0459
GCTCCTCC | -0.0808
ATTGAGTG | 0.0107
ATCGGAAT | -0.0064
ACCTTTCC | -0.157
ATTCTGGA | -0.0214
TCTGTCCA | 0.104
GACGCGAA | 0.0406
GGCTCGGA | -0.087
GCGAATGA | 0.0804
GTCCTGGA | 0.0555
ACGCCCGT | -0.134
AATGATGG | -0.197
AATAGGGA | -0.0593
CTCACGAA | 0.142
AGCCCCTA | -0.155

Some of these lines once more (block 2):
Strand | RBNS enrichment (R)
AGGUCUUCCAUGUUUGAGGAAAUGUCUUGCACUAUUGCAUAUAUUUUGUGGACACAGAUUUUUGUAGUUUCCAUUUUGGAAGGCUAAAGUGUUUUGUUUGUUUGAAACAG | 1.37
CACCCCAAAAGGAGAGAAAAGGAAGAAAACAUUUAUAAAAAGCGACAGCUACCCCCAUAUUCAAAAAUAGUUCUUUUCCCUGUAGGGAAACAGGUAGCUCUCCAUAAGGA | 0.523
UGCCAAGAGAUGUGAUAUAUAAGUGUAUAUAUUGUGCUGUGUUUGGGACCCUCCUCAUACAGCUCGUGCGGAUCUGCAGUGUGUUCUGACUCUAAUGUGACUGUAUAUAC | 0.483
UCAUCCCUAGUAUCUGCUCUGCAAACCAUCUAGACAGAAGCAGUAGGCCUGGCUUUCUCAACUGCCUGAGGCUGUUGCGCAGCAUUGCUGCCUCAUGUGACUGCCGUGCC | 0.259
GUUUUAGAAAUGGCACAUAGGCUUCUAUUACCUGUUAGGUGGAGAUUUUGUAUGUAAAUGUGUUAGCACUGAUAGUCCUUUUCCAGUGUUUUAUUGGGAAAUUAAAUAGU | 1.56
CUUGUUUGCUACAAGCCCUACCCUCCACUCUUUCAUUCCUUGAAAGCAGUUUGCCUGGUCAGUCAGCUUUUGGGGGUCCAUCAAAGGAGGUUGCUGACCUGACCGUGAGU | 0.408
CAUUUGAAUGACCCUCAGCAAUGUGCCUCCCUGCCCUCAAAUUCCCAGUUGAUAACAGUGUUUGAUUAAAUUUCCACUCAAGCCAAACAUGGUUACUAAGAAGAGAAAAA | 0.469
ACACACACACACACAUCUUGUACCCCAGACCUCUGGGUAUAAUUUUCAUAAUUGGUGCAGAAAGAAGAAAUGAUCUGAAGAUGUGUUAAAUGGAUUGCAGGGGAAGGAAG | 0.644
UUAUAUAUCACCCUUUAGAUCUUGAUUUCUUGGUCAUUUCUCAACCUGAGGUGCAUAGCAUAUUCCCACAUUCCAUUUGGUAGCAAUAUGCGGUCUGAAUGCAUGCAUUC | 2.61
UUUCUAUGACUGCAGGGUUUUUUUAUACAGUGUUUUUGGAUUCAUAAUAAAUUGAUGGUUUUUUAUGACAUGCUUUUCUGCCCCACCAUGUUGAUUUGUGACCAGUGUCC | 0.854
